# Measured values pooled from the literature.
# Each numbered part is a random draw from the data of one study; scales do not carry over between parts.
# Sequence of UniProt P29275 (whole entry, looked up): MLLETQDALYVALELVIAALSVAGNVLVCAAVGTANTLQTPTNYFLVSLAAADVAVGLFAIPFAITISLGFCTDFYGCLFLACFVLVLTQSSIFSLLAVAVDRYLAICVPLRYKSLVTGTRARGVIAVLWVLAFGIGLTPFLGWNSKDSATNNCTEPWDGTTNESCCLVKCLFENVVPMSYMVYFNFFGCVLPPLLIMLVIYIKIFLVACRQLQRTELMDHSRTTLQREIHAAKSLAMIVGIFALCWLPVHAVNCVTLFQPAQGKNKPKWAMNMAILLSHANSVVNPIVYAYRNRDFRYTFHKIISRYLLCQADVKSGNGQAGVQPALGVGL
# Sequence of UniProt P35372 (whole entry, looked up): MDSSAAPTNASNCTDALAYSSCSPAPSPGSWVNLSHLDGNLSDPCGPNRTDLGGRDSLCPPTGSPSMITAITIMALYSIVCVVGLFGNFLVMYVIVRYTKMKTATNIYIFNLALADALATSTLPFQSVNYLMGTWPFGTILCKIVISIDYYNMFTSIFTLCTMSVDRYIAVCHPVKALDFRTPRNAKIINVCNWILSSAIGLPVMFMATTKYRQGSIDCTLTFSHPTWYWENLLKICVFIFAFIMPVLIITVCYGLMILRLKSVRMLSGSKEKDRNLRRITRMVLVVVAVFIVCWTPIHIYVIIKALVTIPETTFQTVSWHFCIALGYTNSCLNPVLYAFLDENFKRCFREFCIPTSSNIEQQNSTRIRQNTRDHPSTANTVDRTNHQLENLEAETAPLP
# Sequence of UniProt Q9HBW9 (whole entry, looked up): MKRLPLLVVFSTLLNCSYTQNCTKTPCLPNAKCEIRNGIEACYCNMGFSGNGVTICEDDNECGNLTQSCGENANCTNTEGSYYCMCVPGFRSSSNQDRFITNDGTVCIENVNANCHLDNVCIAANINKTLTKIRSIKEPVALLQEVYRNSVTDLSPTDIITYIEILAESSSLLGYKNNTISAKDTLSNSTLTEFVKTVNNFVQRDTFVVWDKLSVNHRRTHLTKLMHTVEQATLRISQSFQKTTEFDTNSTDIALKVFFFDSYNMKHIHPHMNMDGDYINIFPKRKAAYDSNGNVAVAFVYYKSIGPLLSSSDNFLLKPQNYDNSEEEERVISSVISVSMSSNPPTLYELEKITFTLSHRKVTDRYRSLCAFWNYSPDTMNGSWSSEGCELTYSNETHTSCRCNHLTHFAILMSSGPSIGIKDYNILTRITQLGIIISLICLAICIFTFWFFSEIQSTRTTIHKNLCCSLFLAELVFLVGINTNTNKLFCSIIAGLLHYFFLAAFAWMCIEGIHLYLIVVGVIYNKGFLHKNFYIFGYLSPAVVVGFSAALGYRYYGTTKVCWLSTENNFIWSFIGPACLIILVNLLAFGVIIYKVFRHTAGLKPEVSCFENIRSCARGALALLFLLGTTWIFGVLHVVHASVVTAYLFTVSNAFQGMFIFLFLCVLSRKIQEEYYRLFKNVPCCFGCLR
# Sequence of UniProt P21453 (whole entry, looked up): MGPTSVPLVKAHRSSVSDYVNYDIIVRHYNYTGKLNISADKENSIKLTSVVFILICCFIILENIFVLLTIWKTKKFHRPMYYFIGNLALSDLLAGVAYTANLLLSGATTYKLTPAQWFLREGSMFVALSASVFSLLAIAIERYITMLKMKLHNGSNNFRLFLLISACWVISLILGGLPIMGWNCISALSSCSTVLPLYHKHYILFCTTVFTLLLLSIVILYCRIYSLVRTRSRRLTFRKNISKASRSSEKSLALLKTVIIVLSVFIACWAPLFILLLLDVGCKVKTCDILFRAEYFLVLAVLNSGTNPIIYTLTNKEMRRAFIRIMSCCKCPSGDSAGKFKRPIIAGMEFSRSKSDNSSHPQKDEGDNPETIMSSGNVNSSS
# Sequence of UniProt Q96P68 (whole entry, looked up): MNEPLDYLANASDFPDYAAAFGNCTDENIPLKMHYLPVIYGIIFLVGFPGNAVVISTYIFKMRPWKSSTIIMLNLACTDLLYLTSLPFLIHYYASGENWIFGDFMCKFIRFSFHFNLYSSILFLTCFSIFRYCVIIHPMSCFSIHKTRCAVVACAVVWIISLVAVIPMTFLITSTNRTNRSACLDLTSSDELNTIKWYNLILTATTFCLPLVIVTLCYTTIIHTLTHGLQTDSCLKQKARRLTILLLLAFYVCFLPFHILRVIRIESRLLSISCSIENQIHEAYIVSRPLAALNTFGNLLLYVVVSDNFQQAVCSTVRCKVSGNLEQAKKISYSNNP
# Sequence of UniProt Q8TDS4 (whole entry, looked up): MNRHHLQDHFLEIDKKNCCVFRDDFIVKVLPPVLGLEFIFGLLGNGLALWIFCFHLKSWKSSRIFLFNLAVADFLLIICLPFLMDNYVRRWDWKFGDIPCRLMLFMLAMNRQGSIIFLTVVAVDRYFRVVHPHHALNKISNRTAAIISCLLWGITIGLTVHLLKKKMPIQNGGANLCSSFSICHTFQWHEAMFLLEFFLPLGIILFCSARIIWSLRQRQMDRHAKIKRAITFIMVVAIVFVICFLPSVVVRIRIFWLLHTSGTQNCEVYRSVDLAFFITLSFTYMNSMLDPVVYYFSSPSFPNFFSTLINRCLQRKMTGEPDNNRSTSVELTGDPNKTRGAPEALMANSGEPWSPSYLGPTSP
# Sequence of UniProt Q9NS67 (whole entry, looked up): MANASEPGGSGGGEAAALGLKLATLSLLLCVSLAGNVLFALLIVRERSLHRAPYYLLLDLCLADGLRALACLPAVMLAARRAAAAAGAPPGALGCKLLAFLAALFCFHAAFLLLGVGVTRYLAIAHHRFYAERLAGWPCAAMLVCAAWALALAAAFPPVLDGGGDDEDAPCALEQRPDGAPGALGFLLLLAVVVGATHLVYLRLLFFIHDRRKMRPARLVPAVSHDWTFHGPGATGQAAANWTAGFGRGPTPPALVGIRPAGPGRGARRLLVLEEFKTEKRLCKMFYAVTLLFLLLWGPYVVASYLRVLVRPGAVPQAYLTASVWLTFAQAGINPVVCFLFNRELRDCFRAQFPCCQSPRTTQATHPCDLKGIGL
# Sequence of UniProt P51679 (whole entry, looked up): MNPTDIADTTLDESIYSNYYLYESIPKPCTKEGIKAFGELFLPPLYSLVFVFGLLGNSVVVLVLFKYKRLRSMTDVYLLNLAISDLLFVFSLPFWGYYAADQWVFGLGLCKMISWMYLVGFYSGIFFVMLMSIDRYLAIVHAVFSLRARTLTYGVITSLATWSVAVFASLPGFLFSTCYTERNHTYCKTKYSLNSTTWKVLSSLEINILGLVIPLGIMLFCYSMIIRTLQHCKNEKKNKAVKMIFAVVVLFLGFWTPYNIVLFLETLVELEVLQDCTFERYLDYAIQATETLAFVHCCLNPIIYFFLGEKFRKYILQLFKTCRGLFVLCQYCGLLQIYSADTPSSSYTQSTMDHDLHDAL
# Sequence of UniProt Q9Y653 (whole entry, looked up): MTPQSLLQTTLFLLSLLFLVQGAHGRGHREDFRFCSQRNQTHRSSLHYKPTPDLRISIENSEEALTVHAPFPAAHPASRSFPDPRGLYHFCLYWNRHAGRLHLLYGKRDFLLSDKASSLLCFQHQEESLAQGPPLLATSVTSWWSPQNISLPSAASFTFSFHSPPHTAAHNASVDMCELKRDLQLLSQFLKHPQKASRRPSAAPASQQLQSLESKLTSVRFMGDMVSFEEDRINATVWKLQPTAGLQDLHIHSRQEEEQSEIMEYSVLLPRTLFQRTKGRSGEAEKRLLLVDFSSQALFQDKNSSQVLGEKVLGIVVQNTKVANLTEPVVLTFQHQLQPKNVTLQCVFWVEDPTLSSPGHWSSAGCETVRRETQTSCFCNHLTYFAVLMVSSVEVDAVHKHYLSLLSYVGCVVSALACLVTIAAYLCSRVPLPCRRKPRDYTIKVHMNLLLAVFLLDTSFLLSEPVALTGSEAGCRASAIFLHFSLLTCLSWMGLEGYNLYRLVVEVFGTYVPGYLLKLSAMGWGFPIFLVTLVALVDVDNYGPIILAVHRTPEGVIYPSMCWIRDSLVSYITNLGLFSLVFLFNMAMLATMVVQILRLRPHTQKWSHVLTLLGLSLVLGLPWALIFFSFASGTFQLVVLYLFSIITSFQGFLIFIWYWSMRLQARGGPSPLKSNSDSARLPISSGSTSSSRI

# Study 1
# Target: Muscarinic acetylcholine receptor M5 (CHRM5, Homo sapiens, UniProt P08912)
# Sequence of UniProt P08912 (whole entry, looked up): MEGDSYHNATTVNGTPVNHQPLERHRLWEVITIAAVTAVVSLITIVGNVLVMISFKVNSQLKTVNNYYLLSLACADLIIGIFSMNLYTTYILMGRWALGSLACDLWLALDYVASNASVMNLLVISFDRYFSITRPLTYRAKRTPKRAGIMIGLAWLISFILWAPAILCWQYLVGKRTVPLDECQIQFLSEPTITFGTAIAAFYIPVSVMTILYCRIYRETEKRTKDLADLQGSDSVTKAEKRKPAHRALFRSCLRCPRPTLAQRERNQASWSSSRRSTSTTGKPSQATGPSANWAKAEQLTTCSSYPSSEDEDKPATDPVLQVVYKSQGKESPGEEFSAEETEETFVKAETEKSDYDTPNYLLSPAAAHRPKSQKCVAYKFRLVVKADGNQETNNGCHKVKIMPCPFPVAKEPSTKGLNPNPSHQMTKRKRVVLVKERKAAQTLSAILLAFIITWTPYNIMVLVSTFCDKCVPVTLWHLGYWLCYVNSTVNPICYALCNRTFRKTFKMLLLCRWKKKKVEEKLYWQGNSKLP
# Observed: ligand displacement
# Concentration: 10 µM
SMILES,inhibition
c1ccc(N2CCN(Cc3nc4ccccc4[nH]3)CC2)nc1,-9.66%
COc1cc(C(=O)O)ncc1C#Cc1ccccc1NS(=O)(=O)c1cccc2c(N(C)C)ccnc12,-3.36%
O=c1nc(-c2ccccn2)sc2ccccc12,-7.5%
Nc1nc(NCc2ccccc2)nc(-c2cccc(CO)c2)n1,8.68%
C[C@H](c1ccc(F)cc1)N(Cc1cccc(C(=O)O)c1)C(=O)c1cnc2ccccc2c1,-10.7%
CS(=O)(=O)N1CCCC(NC(=O)[C@H](CCC2CCCCC2)NC(=O)c2ccc(CNC(=O)c3cnc4ccccn34)cc2)C1 (some centres unmarked),-25.5%
Cc1cc(Nc2nccc(C)n2)cc(-c2cnc([C@@]3(O)CC[C@H](C(=O)O)C(C)(C)C3)s2)c1,0.943%
CCC(F)(F)c1cc(N2CCC(S(C)(=O)=O)CC2)nc2sc(C(N)=O)c(N)c12,-10.3%
N#CC1(c2ccccn2)CCN(Cc2cc(C(=O)N3CCCC3)c(=O)n3ccccc23)CC1,0.56%
Cn1nc(C(=O)NCc2ccc(C(=O)O)cc2)cc1-c1ccc2[nH]ccc2c1,-7.43%
Cc1ccc(-c2cnc([C@@]3(O)CC[C@H](C(=O)O)C(C)(C)C3)s2)cc1Nc1cccc(C(F)(F)F)n1,-4.28%
O=C1NC(c2ccccn2)Sc2ccccc21 (centres unmarked),0.557%
Nc1nc(NCc2ccccc2)nc(-c2ccccc2CO)n1,-25.8%
COc1ccc2cc(OCC3(C(=O)O)CN(C(=O)c4ccc(F)cc4)C3)ccc2c1,-7.44%
Cn1cc(Cl)c2c(Oc3c(F)cc(Nc4cc(Cl)nc(N)n4)cc3F)ccnc21,3.3%
Nc1cnc(N2CCc3cc(S(=O)(=O)Nc4c(F)cc(Cl)cc4F)cc(N4CCCC4=O)c32)nc1,1.45%
CN1CCN(c2ccnc(NCCc3ccccc3)n2)CC1,6.46%
CNC(=O)Nc1ccc2c(c1)CC[C@]21OC(=O)N(CC(=O)N(Cc2ccc(F)cc2)[C@@H](C)C(F)(F)F)C1=O,2.39%
C[C@@H]1CN(c2cc(-c3n[nH]c4ccc(OC5(C)CC5)cc34)ncn2)C[C@H](C)O1,1%
C[C@H](c1ccnc(Nc2nc3ccc(-c4cc(N(C)C)ncn4)cc3[nH]2)c1)N1CCN(C(=O)CC(F)(F)F)CC1,18.7%
CCc1ccccc1C(=O)Nc1n[nH]c2c(C)c(F)c(C3C(C#N)=C(C)N(C)C(C)=C3C#N)cc12,17.9%
CN(C)C(=O)c1sc2nc(N3CCC(S(C)(=O)=O)CC3)cc(C(F)(F)F)c2c1N,-6.93%

# Study 2
# Structure (SMILES): N=C(N)NC(=O)c1cnn(-c2cccc3ncccc23)c1C1CC1
# Observed: β-arrestin recruitment
# Action: agonist
# Technique: PRESTO-Tango
# Concentration: 10 µM
# Reference: untreated
target,fold over basal
"ADGRG1 (Homo sapiens, UniProt Q9Y653)",1.15
"S1PR1 (Homo sapiens, UniProt P21453)",1.03
"Probable G-protein coupled receptor 27 (Homo sapiens, UniProt Q9NS67)",1.69
"Adhesion G protein-coupled receptor L4 (ADGRL4, Homo sapiens, UniProt Q9HBW9)",1.25
"Melatonin-related receptor (GPR50, Homo sapiens, UniProt Q13585)",1.07
"ADORA2A (Homo sapiens, UniProt P29274)",1.33
"GPR17 (Homo sapiens, UniProt Q13304)",0.87
"CCR4 (Homo sapiens, UniProt P51679)",0.8
"HCAR2 (Homo sapiens, UniProt Q8TDS4)",0.85 fold
"ADORA2B (Homo sapiens, UniProt P29275)",0.69
"G-protein coupled receptor 87 (GPR87, Homo sapiens, UniProt Q9BY21)",1.25
"OPRM1 (Homo sapiens, UniProt P35372)",1.13
"OXGR1 (Homo sapiens, UniProt Q96P68)",1

# Study 3
# Organism: Sarcocystis neurona
# Observed: parasite growth
# Concentration: 10 µM
# Time: 96 h
# Setting: second screen
# Reference: untreated
SMILES,log2 fold change
Cn1nnc2c(C(N)=O)ncn2c1=O,0.24
O=C1CN2Cc3c(ccc(Cl)c3Cl)N=C2N1,0.28
CCC(=O)O[C@]1(C(=O)SCF)[C@H](C)C[C@H]2[C@@H]3C[C@H](F)C4=CC(=O)C=C[C@]4(C)[C@@]3(F)[C@@H](O)C[C@@]21C,0.29
NCc1ccc(S(N)(=O)=O)cc1,0.54
CC1(C)S[C@@H]2[C@H](NC(=O)[C@H](N)c3ccc(O)cc3)C(=O)N2[C@H]1C(=O)O,0.34
CN1CCN(C2=Nc3cc(Cl)ccc3Nc3ccccc32)CC1,0.57
C[N+]1(C)CCC(OC(=O)C(O)(c2ccccc2)C2CCCC2)C1 (centres unmarked),0.62
CC(C)c1ccc2oc3nc(N)c(C(=O)O)cc3c(=O)c2c1,3.27
CCOC(=O)CCC(=O)O[C@H]1[C@H](O[C@@H]2[C@@H](C)[C@H](O[C@H]3C[C@@](C)(OC)[C@@H](O)[C@H](C)O3)[C@@H](C)C(=O)O[C@H](CC)[C@@](C)(O)[C@H](O)[C@@H](C)C(=O)[C@H](C)C[C@@]2(C)O)O[C@H](C)C[C@@H]1N(C)C,-0.32
[H]/N=C(/NC)NCCC[C@H](N)C(=O)O,0.34
CN(C)c1nc(N(C)C)nc(N(C)C)n1,0.19
CN(C)C(=O)C(CCN1CCC(O)(c2ccc(Cl)cc2)CC1)(c1ccccc1)c1ccccc1,-0.46
Nc1ccn([C@H]2CC[C@@H](CO)O2)c(=O)n1,0.33
CCN1CCN(c2cc3c(cc2F)c(=O)c(C(=O)O)cn3C2CC2)CC1,0.24
COc1ccccc1OCC(O)COC(N)=O (centres unmarked),0.23
C=C1/C(=C\C=C2/CCC[C@]3(C)[C@@H]([C@H](C)/C=C/[C@@H](O)C4CC4)CC[C@@H]23)C[C@@H](O)C[C@@H]1O,0.36
O=C(O)Cc1ccccc1Nc1c(Cl)cccc1Cl,0.08
COc1ccccc1N1CCN(CC(O)COc2cccc3ccccc23)CC1 (centres unmarked),0.45
C=C(CC)C(=O)c1ccc(OCC(=O)O)c(Cl)c1Cl,-0.18
O=C(O)COCCN1CCN(C(c2ccccc2)c2ccc(Cl)cc2)CC1 (centres unmarked),0.08
CS(=O)(=O)c1ccc(-c2cc(Br)sc2-c2ccc(F)cc2)cc1,-0.06
C[C@H]1O[C@@H](O[C@H]2[C@@H](O)C[C@H](O[C@H]3[C@@H](O)C[C@H](O[C@H]4CC[C@@]5(C)[C@H](CC[C@@H]6[C@@H]5C[C@@H](O)[C@]5(C)[C@@H](C7=CC(=O)OC7)CC[C@]65O)C4)O[C@@H]3C)O[C@@H]2C)C[C@H](O)[C@@H]1O,-0.63

# Study 4
# Target: Cyclin-dependent kinase 5, with p35 (CDK5, Homo sapiens, UniProt Q00535)
# Sequence of UniProt Q00535 (whole entry, looked up): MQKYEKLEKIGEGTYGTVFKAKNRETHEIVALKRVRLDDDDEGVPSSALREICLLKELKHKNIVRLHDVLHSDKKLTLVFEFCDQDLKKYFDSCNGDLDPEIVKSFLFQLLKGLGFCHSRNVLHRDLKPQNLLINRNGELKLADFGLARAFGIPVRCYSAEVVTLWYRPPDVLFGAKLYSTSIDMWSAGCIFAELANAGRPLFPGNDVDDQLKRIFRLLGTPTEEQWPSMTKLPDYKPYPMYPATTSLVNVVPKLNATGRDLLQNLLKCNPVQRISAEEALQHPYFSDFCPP
# Observed: enzyme activity
# Action: inhibitor
# Concentration: 0.5 µM
# Reference: control
Compound,remaining activity
CN(C)S(=O)(=O)c1ccc2c(c1)/C(=C/c1cc3c([nH]1)CCCC3)C(=O)N2,76.9%
COc1cccc(-c2cc(=O)c3ccccc3o2)c1N,101%
Cc1cc(Nc2cc(N3CCN(C)CC3)nc(Sc3ccc(NC(=O)C4CC4)cc3)n2)[nH]n1,100%
Cc1ccc(S(=O)(=O)/C=C/C#N)cc1,97%
c1ccc(-c2n[nH]c3c2oc2ccccc23)cc1,85.8%
O=C1NC(=O)c2c1c1c3ccccc3[nH]c1c1[nH]c3cc(Br)ccc3c21,44.1%
N#Cc1cnc2cnc(NCc3cccnc3)cc2c1Nc1ccc(F)c(Cl)c1,80.4%
O=c1cc(N2CCOCC2)oc2c(-c3ccccc3)cccc12,107%
O=Nc1c(-c2c(O)[nH]c3cc(Br)ccc23)[nH]c2ccccc12,12.4%
O=C(c1cc2cc(O)ccc2[nH]1)c1cc2cc(O)ccc2[nH]1,57.3%
CCCNC(=O)Nc1ccc(Oc2ncnc3cc(OC)c(OC)cc23)cc1Cl,98%
O=C1Nc2ccc(Br)cc2/C1=C/c1cc2c([nH]1)CCCC2,84.6%
O=C1NC(=O)c2c1c1c3ccccc3[nH]c1n1cncc21,67%
CCCCc1c(-c2ccc(OC)cc2)[nH]c2nccnc12,48.3%
Oc1cccc(-c2nc(N3CCOCC3)c3oc4ncccc4c3n2)c1,101%
c1ccc2c(-c3ccncc3)c[nH]c2c1,96%
O=C1Cc2c([nH]c3ccc(Br)cc23)-c2ccccc2N1,70.8%
COc1ccc(COc2ccc(Cc3cnc(N)nc3N)cc2OC)cc1,106%
O=C1Nc2ccccc2/C1=C\c1c(Cl)[nH]c2ccccc12,86.7%
COc1ccc2c(c1)c(C1=C(c3c[nH]c4ccccc34)C(=O)NC1=O)cn2CCCN(C)C,81.4%

# For quick reference, copied from above (study 4):
Compound,remaining activity
N#Cc1cnc2cnc(NCc3cccnc3)cc2c1Nc1ccc(F)c(Cl)c1,80.4%
O=C1Cc2c([nH]c3ccc(Br)cc23)-c2ccccc2N1,70.8%
COc1ccc(COc2ccc(Cc3cnc(N)nc3N)cc2OC)cc1,106%
O=C1Nc2ccccc2/C1=C\c1c(Cl)[nH]c2ccccc12,86.7%
O=C1NC(=O)c2c1c1c3ccccc3[nH]c1c1[nH]c3cc(Br)ccc3c21,44.1%
O=c1cc(N2CCOCC2)oc2c(-c3ccccc3)cccc12,107%
COc1ccc2c(c1)c(C1=C(c3c[nH]c4ccccc34)C(=O)NC1=O)cn2CCCN(C)C,81.4%
